# Measurements collected from several papers.
# Values joined by “and” are separate records of one study, mostly repeats; a detail may differ.
# CDK4 with cyclin D1: Cyclin-dependent kinase 4, with cyclin D1 (CDK4, Homo sapiens, UniProt P11802)
# CDK4 with cyclin D3: Cyclin-dependent kinase 4, with cyclin D3 (CDK4, Homo sapiens, UniProt P11802)
# CDK4: Cyclin-dependent kinase 4 (CDK4, Homo sapiens, UniProt P11802)
# CDK4 with cyclin D: Cyclin-dependent kinase 4, with cyclin D (CDK4, Homo sapiens, UniProt P11802)
Compound,target,test,test system,conditions,scale,measurement,result
C=CC(=O)N1Cc2nc(-c3cc(-c4cc(Cl)cnc4Cl)c(F)cc3F)n(-c3ccncn3)c2C1,CDK4 with cyclin D1,"cell-free assay, inhibitor",,1 µM,,inhibition,0%
Nc1ncc(-c2cc(-c3cnn(CC(F)(F)F)c3)ncc2F)nc1C(=O)NC1CNCC(F)C1 (stereo not shown),"Cyclin-dependent kinase 4, with cyclin D2 (CDK4, Homo sapiens, UniProt P11802)",enzyme activity,,1 µM,reference: DMSO control,remaining activity,96.8%
NC(=O)[C@@H](O)C[C@H]1CCc2sc3ncnc(O[C@H]4CC[C@H](N5CCOCC5)CC4)c3c21,CDK4 with cyclin D3,"enzyme activity, inhibitor",,10 µM,,inhibition,10%
CN1C[C@@H](c2c[nH]c3cc(Br)ccc23)NC[C@@H]1c1c[nH]c2cc(Br)ccc12,CDK4 with cyclin D1,"enzyme activity, inhibitor",,10 µM,,remaining activity,99%
COc1cc(Nc2nc(C)cc(-c3cnn4nc(OC)ccc34)n2)cc(C(F)(F)F)c1,CDK4,inhibitor,,1 µM,reference: control,remaining activity,70%
COCC12C(=O)NC3C4(C(OC)CC1O)C1CC5(O)C(OC)C(O)C(OC(C)=O)(C1C5OC(=O)c1ccccc1)C3(O)C(OC)C24 (stereo not shown),CDK4 with cyclin D3,"kinase activity, inhibitor, ProQinase kinase profiling",,25 µM,reference: control,remaining activity,109% and 99%
CNC(=O)C[C@H](Cc1ccc(C#N)cc1)NC(=O)c1cc(-c2ccc(CN[C@H](C)c3ccc(C)cc3)o2)ccc1Cl,CDK4 with cyclin D3,"enzyme activity, inhibitor",,1 µM,,activity vs control,101%
Cc1cccc(O[C@H]2CCC[C@@H](C(C)CNCc3ccncc3)C2)c1 (relative stereo),CDK4 with cyclin D,kinome profiling,,1 µM,,inhibition,2%
CCn1cc(C(=O)O)c(=O)c2c(N)c(F)c(NC3CCCCC3)cc21,CDK4 with cyclin D3,kinase activity,,"0.1 µM, together with: ATP at Km",,inhibition,1.7%
CS(=O)(=O)Nc1cccc(-c2csc3cnc(Nc4ccc(N5CCN(CCCCCOc6cccc7c6C(=O)N(C6CCC(=O)NC6=O)C7=O)CC5)cc4)nc23)c1 (stereo not shown),CDK4,target engagement in cells,MOLT-4,1 µM,,inhibition,> 50%
C=CC(=O)Nc1cccc(-c2cnc3[nH]cc(C(=O)NC(C)(C)C)c3n2)c1,CDK4 with cyclin D,"kinase activity, inhibitor, kinase panel",,0.1 µM,,inhibition,2% and -1%
NC(=O)C[C@H]1CCc2sc3ncnc(O[C@H]4CC[C@H](N5CCOCC5)CC4)c3c21,CDK4 with cyclin D1,"enzyme activity, inhibitor",,10 µM,,inhibition,5%
CN1CC[C@@H](COc2cnc(C#N)cc2-c2ccn3nc(NC(=O)C4CC4)cc3c2)C1,CDK4 with cyclin D3,"enzyme activity, inhibitor",,1 µM,,inhibition,-2%

# Some of these lines once more:
Compound,target,test,test system,conditions,scale,measurement,result
CS(=O)(=O)Nc1cccc(-c2csc3cnc(Nc4ccc(N5CCN(CCCCCOc6cccc7c6C(=O)N(C6CCC(=O)NC6=O)C7=O)CC5)cc4)nc23)c1 (stereo not shown),CDK4,target engagement in cells,MOLT-4,1 µM,,inhibition,> 50%
